# Results of several laboratories.
# Each line is one published result; not all experiments were run side by side.
# Sequence of UniProt P40939 (whole entry, looked up): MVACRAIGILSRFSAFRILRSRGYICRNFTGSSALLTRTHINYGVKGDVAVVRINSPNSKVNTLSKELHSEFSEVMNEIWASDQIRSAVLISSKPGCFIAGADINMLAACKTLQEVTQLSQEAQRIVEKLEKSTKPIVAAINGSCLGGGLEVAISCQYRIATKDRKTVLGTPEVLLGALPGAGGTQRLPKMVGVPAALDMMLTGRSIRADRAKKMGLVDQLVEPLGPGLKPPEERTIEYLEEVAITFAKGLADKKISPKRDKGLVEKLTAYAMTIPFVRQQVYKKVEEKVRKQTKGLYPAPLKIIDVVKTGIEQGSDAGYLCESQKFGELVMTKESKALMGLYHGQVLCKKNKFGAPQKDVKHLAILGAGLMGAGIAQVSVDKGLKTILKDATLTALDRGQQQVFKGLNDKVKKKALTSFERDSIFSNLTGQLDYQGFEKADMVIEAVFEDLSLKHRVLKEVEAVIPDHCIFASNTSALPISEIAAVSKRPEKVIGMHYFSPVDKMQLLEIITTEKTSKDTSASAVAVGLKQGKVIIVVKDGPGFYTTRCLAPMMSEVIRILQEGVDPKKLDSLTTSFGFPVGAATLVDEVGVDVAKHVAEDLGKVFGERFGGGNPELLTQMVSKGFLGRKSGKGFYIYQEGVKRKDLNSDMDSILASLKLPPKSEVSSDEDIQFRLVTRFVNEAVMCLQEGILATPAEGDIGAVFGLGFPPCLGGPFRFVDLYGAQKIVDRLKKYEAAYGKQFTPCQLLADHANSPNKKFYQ
Compound,target or system,assay,test system,setting,scale,measurement,result
Nc1cccc2c1C(=O)N(C1CCC(=O)NC1=O)C2=O (stereo not shown),human coronavirus OC43,virus-induced cell killing,MRC-5,maximum over 10 doses,,maximum inhibition,1.08%
Cn1c(=O)ccc2ccc(F)c(CCNC[C@H]3CN(c4cnc5c(n4)NC(=O)CO5)C(=O)O3)c21,Stenotrophomonas maltophilia,,,,,MIC50,0.06 µg/mL
Cc1nc(Nc2ncc(C(=O)Nc3c(C)cccc3Cl)s2)cc(N2CCN(CCO)CC2)n1,human coronavirus OC43,virus-induced cell killing,MRC-5,maximum over 10 doses,,maximum inhibition,0%
COC(=O)[C@@H]1[C@@H](c2ccccc2)[C@]2(c3ccc(OC)cc3)Oc3cc(OC)cc(OC)c3[C@@]23N=C(C)N[C@@]13O,Hepatitis E virus,viral replication,"HepG2 HEV-3 replicon, genotype 3","48 h, racemate",,EC50,~1.5 nM
CC(C)(C)N1CCC(c2ccccc2)(c2ccccc2)CC1,Vero-E6,CellTiter-Glo ATP,,"concentration not given, 72 h, first round 5-point","baseline: DMSO 0%, hyamine -100%, more negative, more toxic",cytotoxicity efficacy,0%
C[C@H]1c2cccc(O)c2C(=O)C2=C(O)[C@]3(O)C(=O)C(C(N)=O)=C(O)[C@@H](N(C)C)[C@@H]3[C@@H](O)[C@@H]21,Streptococcus pyogenes,,,,,MIC90,8 µg/mL
Nc1ncnc2c1ncn2[C@@H]1O[C@@H]2COP(=O)(O)O[C@H]3[C@@H](O)[C@H](n4cnc5c(=O)[nH]cnc54)O[C@@H]3COP(=O)(O)O[C@H]2[C@H]1O,West Nile virus,"RNA sequencing, measured: organization, extracellular matrix, R-HSA-1474244",HFF-1 cells,"concentration not given, downregulated pathway",baseline: WNV-infected untreated cells,fold enrichment,5.04
CC[C@H](C)[C@H](NC(=O)[C@H](C)NC(=O)[C@H](CCCCN)NC(=O)[C@H](CC(C)C)NC(=O)[C@H](C)NC(=O)[C@@H](NC(=O)[C@H](Cc1c[nH]cn1)NC(=O)[C@H](CC(C)C)NC(=O)[C@@H](NC(=O)[C@@H](NC(=O)[C@H](CCCCN)NC(=O)[C@H](C)NC(=O)[C@H](C)NC(=O)[C@H](CO)NC(=O)[C@H](CCCCN)NC(=O)[C@H](Cc1ccccc1)NC(=O)[C@@H](NC(=O)[C@H](CCCCN)NC(=O)[C@H](CC(C)C)NC(=O)[C@H](Cc1ccccc1)NC(=O)[C@H](CO)NC(=O)[C@H](CCCCN)NC(=O)[C@H](Cc1c[nH]c2ccccc12)NC(=O)[C@H](CCCCN)NC(C)=O)[C@@H](C)O)[C@@H](C)O)C(C)C)[C@@H](C)O)C(=O)N[C@@H](CO)C(=O)N[C@@H](CO)C(N)=O,Streptococcus pyogenes,,ATCC 13813,1 strain,,MBC range,16 µg/mL
COC(=O)N[C@H](C(=O)N1CCC[C@H]1c1ncc(-c2ccc(-c3ccc(-c4cnc([C@@H]5CCCN5C(=O)[C@@H](NC(=O)OC)C(C)C)[nH]4)cc3)cc2)[nH]1)C(C)C,Hepatitis C virus,,"replicon cells, genotype 1a","50% effect level, together with: NS3 inhibitor, ratio 2.5:1",,combination index,1.12
CCc1ccccc1N1CC(c2nc3ccccc3n2CCCCOc2ccccc2OC)CC1=O (stereo not shown),Vero-E6,CellTiter-Glo ATP,,"concentration not given, 72 h, first round 5-point","baseline: DMSO 0%, hyamine -100%, more negative, more toxic",cytotoxicity efficacy,-10.6%
C[C@H]1CN(c2n[nH]c3nc(N[C@H]4CC[C@H](NS(=O)(=O)CCC(F)(F)F)CC4)ncc23)CCO1,"HADHA (Homo sapiens, UniProt P40939)",biochemical,,,,IC50,≥ 20 µM
COc1ccc2ccc3oc([N+](=O)[O-])cc3c2c1Br,Salmonella enterica,REMA,,,,MIC90,< 0.25 µg/mL
O=C(O)CSc1nnc(Br)n1-c1ccc(C2CC2)c2ccccc12,human coronavirus OC43,virus-induced cell killing,MRC-5,screen,,maximum inhibition,14.3%
